Assay results from different studies.
Several values in a cell are separate wells, animals, samples, runs or records. Numbers after ± are the reported error.
Chain of UniProt Q13163 (whole entry, looked up): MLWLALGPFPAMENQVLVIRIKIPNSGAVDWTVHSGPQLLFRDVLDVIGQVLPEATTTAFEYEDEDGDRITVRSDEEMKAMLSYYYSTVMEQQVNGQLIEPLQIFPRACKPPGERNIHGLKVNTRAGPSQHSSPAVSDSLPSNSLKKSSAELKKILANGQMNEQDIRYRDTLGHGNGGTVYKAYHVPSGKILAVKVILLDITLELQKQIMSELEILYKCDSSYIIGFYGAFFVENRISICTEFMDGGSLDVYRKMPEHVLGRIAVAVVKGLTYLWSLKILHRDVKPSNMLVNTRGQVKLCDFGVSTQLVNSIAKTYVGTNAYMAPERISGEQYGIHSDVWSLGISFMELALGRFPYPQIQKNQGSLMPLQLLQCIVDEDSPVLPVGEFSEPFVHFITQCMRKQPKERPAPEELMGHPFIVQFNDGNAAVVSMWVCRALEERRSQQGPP

| SMILES | target or system | assay | test system | conditions | how to read | endpoint | value |
| --- | --- | --- | --- | --- | --- | --- | --- |
| CC(C)C[C@H](N)C(=O)N1CCC[C@H]1C(=O)N[C@@H](Cc1ccccc1)C(=O)N[C@@H](Cc1ccccc1)C(=O)N[C@@H](CC(=O)O)C(=O)N[C@@H](CC(=O)O)C(=O)N[C@@H](C)C(=O)N[C@@H](Cc1c[nH]cn1)C(=O)N[C@@H](CCCCN)C(N)=O | – | RP-HPLC | 50% human serum | 100 µM, 24 h, 37 °C | – | intact peptide remaining | 40% |
| CC(CCC(=O)NCC(=O)O)C1CCC2C3CCC4CC(OC5OC(C(=O)O)C(O)C(O)C5O)CCC4(C)C3CC(O)C12C (stereo not shown) | – | – | human women | dose not given, SLCO1B1 *5/*14 | – | plasma concentration | 71.4 ng/mL |
| Cc1ccc(NS(=O)(=O)c2c(C(=O)N3CCCCCC3)c(C)n(C)c2C)c(Cl)c1 | CV-1 | – | African green monkey cells | 11.11 µM, 60 (unit not given) | – | viability | 96.2% and 102% |
| CC[C@H](C)[C@H](NC(=O)[C@H](CO)NC(=O)[C@H](Cc1ccc(O)cc1)NC(=O)[C@H](Cc1ccc(O)cc1)NC(=O)[C@H](CC(N)=O)NC(=O)CNC(=O)[C@H](CO)NC(=O)[C@H](Cc1ccc(O)cc1)NC(=O)[C@H](CO)NC(=O)[C@H](CO)NC(=O)[C@H](CC(N)=O)NC(=O)COCCOCCNC(=O)CN1CCN(CC(=O)O)CCN(CC(=O)O)CCN(CC(=O)O)CC1)C(=O)N[C@@H](CC(C)C)C(N)=O [copper-64 labelled] | – | dynamic PET | KPC mouse Ptf1a-CreER tdTomato, metastases | intravenous, dose not given, 1.9 min, 84 d after tamoxifen | – | tissue uptake | 15.4 %ID/mL |
| C=CCN1CCC23c4c5ccc(OC(=O)c6ccc(N)cc6)c4OC2C(=O)CCC3(O)C1C5 (stereo not shown) | – | – | rat plasma | 0.5 h, with: digitonin 100 µM | – | remaining compound | 3.2% and 3.6% |
| CC[C@H](C)[C@H](NC(=O)[C@H](CCCCN)NC(=O)CNC(=O)[C@H](CC(C)C)NC(=O)[C@H](Cc1ccccc1)NC(=O)[C@H](CCCCN)NC(=O)[C@H](CO)NC(=O)[C@H](Cc1ccccc1)NC(=O)[C@H](Cc1c[nH]c2ccccc12)NC(=O)[C@H](CCC(N)=O)NC(=O)[C@@H](NC(=O)[C@H](Cc1ccccc1)NC(=O)CCCCCNC(=O)CN1CCN(CC(=O)O)CCN(CC(=O)O)CCN(CC(=O)O)CC1)C(C)C)C(=O)N[C@@H](CCC(=O)O)C(=O)N1CCC[C@H]1C(=O)N[C@@H](CC(=O)O)C(=O)N[C@H](C(=O)N[C@@H](CO)C(=O)N[C@@H](CCC(N)=O)C(=O)N[C@H](C(=O)N[C@@H](CCC(N)=O)C(=O)N[C@@H](CC(=O)O)C(=O)N1CCC[C@H]1C(=O)N[C@@H](CC(N)=O)C(=O)N[C@@H](CC(=O)O)C(=O)N[C@@H](CCC(N)=O)C(=O)N[C@@H](Cc1ccc(O)cc1)C(=O)N[C@@H](CCC(=O)O)C(=O)N1CCC[C@H]1C(=O)N[C@@H](Cc1ccccc1)C(=O)O)C(C)C)C(C)C [copper-64 labelled] | – | – | GZMB-/- mice, CT26 tumour-bearing, bone | 2 h, checkpoint inhibitor-treated | – | tissue uptake | 0.49 ± 0.05 %ID/g |
| O=C1NC(=O)c2c1c1cc(F)c[n+]3c1c1c2c2cc(O)ccc2[n]1[Ru-4]312([N]=C=S)[S+]3CC[S+]1CC[S+]2CC3 (stereo not shown) | SYK (Homo sapiens, UniProt P43405) | enzyme activity | – | 100 nM, human enzyme, with: 10 µM ATP | baseline: untreated | remaining activity | 120% |
| CC(C)(C)C(=O)OCOP(=O)(OCOC(=O)C(C)(C)C)C1CCCN(O)C1=O (stereo not shown) | NCI-H460 | – | – | – | – | TGI | 12.9 µM |
| CC[C@H](C)[C@H](NC(C)=O)C(=O)N[C@@H](Cc1ccc(O)cc1)C(=O)N[C@@H](CC(C)C)C(=O)N[C@@H](CS)C(=O)NCC(=O)N[C@@H](C)C(=O)N[C@H](C(=O)N[C@@H](CO)C(=O)N[C@@H](CC(C)C)C(=O)N[C@@H](Cc1c[nH]cn1)C(=O)N1CCC[C@H]1C(=O)N[C@@H](CCCCN)C(=O)N[C@@H](C)C(=O)N[C@@H](CCCCN)C(=O)N[C@H](C(=O)N[C@@H](CCC(=O)O)C(=O)N[C@@H](CCC(=O)O)C(=O)N[C@@H](CO)C(=O)N1CCC[C@H]1C(=O)NCC(=O)N[C@@H](C)C(N)=O)[C@@H](C)CC)[C@@H](C)CC | – | Cy5.5 fluorescence | mouse (C57BL/6), serum | intravenous, 10 mg/kg | – | elimination half-life | 48 min |
| CCN1CC2(COC)C(O)CC(OC)C34C5CC6(O)C(OC)C(O)C(O)(C5C6OC(=O)c5ccccc5)C(C(OC)C23)C14 (stereo not shown) | – | – | Sprague-Dawley rat, plasma | oral, dose not given, in PCW extract | – | MRT(0-t) | 353 ± 95 min |
| CN1Cc2cc(Cl)ccc2-n2c(nnc2C2CCN(c3cccc(F)n3)CC2)C1 | – | mass spectrometry | male Sprague-Dawley rat, brain | intravenous, 0.03 mg/kg, 5 min | – | concentration | 7.2 ng/mL |
| COc1ccccc1-c1n[nH]c2nc(NC3CCN(C(=O)Cc4ccc(F)cc4F)CC3)ncc12 | – | bead binding, competition bead pull-down, refers to: LMJF.30.2550 | Leishmania donovani axenic amastigote extract | 10 µM | baseline: vehicle | relative abundance | 0.85 |
| CSCC[C@H](NC(=O)CNC(=O)[C@H](CCCCN)NC(=O)[C@H](CC(C)C)NC(=O)[C@@H]1CCCN1C(=O)[C@H](CO)NC(=O)[C@H](Cc1c[nH]cn1)NC(=O)[C@H](Cc1c[nH]c2ccccc12)NC(=O)[C@H](CCCNC(=N)N)NC(=O)[C@H](CC(C)C)NC(=O)[C@H](CCCNC(=N)N)NC(=O)[C@H](Cc1c[nH]c2ccccc12)NC(=O)[C@H](CS)NC(=O)CCCCCNC(=O)CN1CCN(CC(=O)O)CCN(CC(=O)O)CCN(CC(=O)O)CC1)C(=O)O [copper-64 labelled] | – | – | male C57BL/6J mice, B16-F10 tumour, intestinal lymph node | intravenous, 1.85 MBq, 30 h | – | tissue uptake | 0.87 %ID/g |
| N=C(N)NCCC[C@H](NC(=O)[C@H](CCCNC(=N)N)NC(=O)[C@H](CCCNC(=N)N)NC(=O)[C@H](CCC(N)=O)NC(=O)[C@H](CCCNC(=N)N)NC(=O)[C@H](CCCNC(=N)N)NC(=O)[C@H](CCCCN)NC(=O)[C@H](CCCCN)NC(=O)[C@H](CCCNC(=N)N)NC(=O)CNC(=O)[C@H](Cc1ccc(O)cc1)NC(=O)[C@H](Cc1ccccc1)NC(=O)[C@H](Cc1ccccc1)NC(=O)[C@H](Cc1ccccc1)NC(=O)OCC1c2ccccc2-c2ccccc21)C(=O)O | – | – | C57BL/6 mice | intraperitoneal, 10 mg/kg, 0.5 h | direction not given | health score | 5 |
| O=C1NC2(CC2)COc2ncc(F)cc2[C@H]2COCCN2c2ccn3ncc1c3n2 | – | – | Sprague-Dawley rat, female, serum | oral, 10 mg/kg/day, 4 weeks daily, end of recovery period | – | potassium | 3.93 ± 0.14 mmol/L |
| O=C(c1cc(Cc2n[nH]c(=O)c3ccccc23)ccc1F)N1CC(CNC2CC2)C1 | – | – | female ICR mouse, plasma | intravenous, 20 mg/kg | – | half-life | 54 min |
| CSCC[C@H](N)C(=O)N[C@@H](C)C(=O)N[C@@H](Cc1c[nH]c2ccccc12)C(=O)N[C@@H](Cc1c[nH]cn1)C(=O)N[C@@H](CC(=O)O)C(=O)N[C@@H](CC(=O)O)C(=O)N[C@@H](CCC(=O)O)C(=O)N[C@@H](CCC(=O)O)C(=O)N[C@@H](Cc1ccccc1)C(=O)N[C@@H](C)C(=O)N[C@@H](CCCNC(=N)N)C(=O)N[C@@H](CCCNC(=N)N)C(=O)N[C@@H](CCCNC(=N)N)C(=O)N[C@@H](CCCNC(=N)N)C(=O)NCCCCCC(=O)NCCCCC(NC(=O)CCCCCNC(=O)[C@H](CCCNC(=N)N)NC(=O)[C@H](CCCNC(=N)N)NC(=O)[C@H](CCCNC(=N)N)NC(=O)[C@H](CCCNC(=N)N)NC(=O)[C@H](C)NC(=O)[C@H](Cc1ccccc1)NC(=O)[C@H](CCC(=O)O)NC(=O)[C@H](CCC(=O)O)NC(=O)[C@H](CC(=O)O)NC(=O)[C@H](CC(=O)O)NC(=O)[C@H](Cc1c[nH]cn1)NC(=O)[C@H](Cc1c[nH]c2ccccc12)NC(=O)[C@H](C)NC(=O)[C@@H](N)CCSC)C(=O)NCCCCC(NC(=O)C(CCCCNC(=O)CCCCCNC(=O)[C@H](CCCNC(=N)N)NC(=O)[C@H](CCCNC(=N)N)NC(=O)[C@H](CCCNC(=N)N)NC(=O)[C@H](CCCNC(=N)N)NC(=O)[C@H](C)NC(=O)[C@H](Cc1ccccc1)NC(=O)[C@H](CCC(=O)O)NC(=O)[C@H](CCC(=O)O)NC(=O)[C@H](CC(=O)O)NC(=O)[C@H](CC(=O)O)NC(=O)[C@H](Cc1c[nH]cn1)NC(=O)[C@H](Cc1c[nH]c2ccccc12)NC(=O)[C@H](C)NC(=O)[C@@H](N)CCSC)NC(=O)CCCCCNC(=O)[C@H](CCCNC(=N)N)NC(=O)[C@H](CCCNC(=N)N)NC(=O)[C@H](CCCNC(=N)N)NC(=O)[C@H](CCCNC(=N)N)NC(=O)[C@H](C)NC(=O)[C@H](Cc1ccccc1)NC(=O)[C@H](CCC(=O)O)NC(=O)[C@H](CCC(=O)O)NC(=O)[C@H](CC(=O)O)NC(=O)[C@H](CC(=O)O)NC(=O)[C@H](Cc1c[nH]cn1)NC(=O)[C@H](Cc1c[nH]c2ccccc12)NC(=O)[C@H](C)NC(=O)[C@@H](N)CCSC)C(N)=O (stereo partly shown) | – | – | C57BL/6 mouse female, uterus | dose not given, 6 h | baseline: total | mean tissue distribution | 1.52% |
| CN(C)[C@H]1C[C@@]23CC[C@@]4(O2)C(=CC[C@]2(C)[C@@H](c5ccc6ccncc6c5)CC[C@H]24)C=C3[C@@H](O)[C@@H]1O | MAP2K5 (Homo sapiens, UniProt Q13163) | ATP probe labelling, inhibitor, KiNativ profiling | – | 1 µM | – | inhibition | -14.4% |
| CCCCCCCCCCCCCCCC(=O)N[C@@H](CCC(=O)NCCOCCOCCC(=O)NCCOCCOCCC(=O)NCCCC[C@H](NC(=O)[C@H](CC(=O)O)NC(=O)[C@H](CC(C)C)NC(=O)[C@H](Cc1ccc(O)cc1)NC(=O)[C@H](CCCCN)NC(=O)[C@H](CO)NC(=O)[C@H](Cc1ccc(O)cc1)NC(=O)[C@H](CC(=O)O)NC(=O)[C@H](CO)NC(=O)[C@@H](NC(=O)[C@H](Cc1ccccc1)NC(=O)[C@@H](NC(=O)CNC(=O)[C@H](CCC(N)=O)NC(=O)[C@@H](CO)NC(=O)[C@@H](N)Cc1c[nH]cn1)[C@@H](C)O)[C@@H](C)O)C(=O)N[C@@H](CCCNC(=N)N)C(=O)N[C@@H](CCCNC(=N)N)C(=O)N[C@@H](C)C(=O)N[C@@H](CCC(N)=O)C(=O)N[C@@H](CC(=O)O)C(=O)N[C@@H](Cc1ccccc1)C(=O)N[C@H](C(=O)N[C@@H](CCC(N)=O)C(=O)N[C@@H](Cc1c[nH]c2ccccc12)C(=O)N[C@@H](CC(C)C)C(=O)N[C@@H](CC(C)C)C(=O)N[C@@H](CC(N)=O)C(=O)N[C@H](C(=O)NCC(=O)NCC(=O)N1CCC[C@H]1C(=O)N[C@@H](CO)C(=O)N[C@@H](CO)C(=O)NCC(=O)N[C@@H](C)C(=O)N1CCC[C@H]1C(=O)N1CCC[C@H]1C(=O)N1CCC[C@H]1C(=O)N[C@@H](CO)C(N)=O)[C@@H](C)O)C(C)C)C(=O)O | – | – | rhesus monkeys | intravenous, 15.3 µg/kg single | – | Vss | 0.0379 ± 0.00347 L/kg |

Some of these lines once more:
| SMILES | target or system | assay | test system | conditions | how to read | endpoint | value |
| --- | --- | --- | --- | --- | --- | --- | --- |
| COc1ccccc1-c1n[nH]c2nc(NC3CCN(C(=O)Cc4ccc(F)cc4F)CC3)ncc12 | – | bead binding, competition bead pull-down, refers to: LMJF.30.2550 | Leishmania donovani axenic amastigote extract | 10 µM | baseline: vehicle | relative abundance | 0.85 |
| CSCC[C@H](NC(=O)CNC(=O)[C@H](CCCCN)NC(=O)[C@H](CC(C)C)NC(=O)[C@@H]1CCCN1C(=O)[C@H](CO)NC(=O)[C@H](Cc1c[nH]cn1)NC(=O)[C@H](Cc1c[nH]c2ccccc12)NC(=O)[C@H](CCCNC(=N)N)NC(=O)[C@H](CC(C)C)NC(=O)[C@H](CCCNC(=N)N)NC(=O)[C@H](Cc1c[nH]c2ccccc12)NC(=O)[C@H](CS)NC(=O)CCCCCNC(=O)CN1CCN(CC(=O)O)CCN(CC(=O)O)CCN(CC(=O)O)CC1)C(=O)O [copper-64 labelled] | – | – | male C57BL/6J mice, B16-F10 tumour, intestinal lymph node | intravenous, 1.85 MBq, 30 h | – | tissue uptake | 0.87 %ID/g |
